Values quoted from earlier work, collected from citations in different studies.
Each numbered part shows a few of the values that one paper quotes. Numbers after ± are the reported error.

Sample 1
Target: COX-1
Quantity: IC50
SMILES = O=C(O)COc1ccc(Br)cc1C=NNC(=O)Cc1ccccc1 (mixture of isomers); value = 5.93 ± 0.12 µM
SMILES = Cc1ccc(C(=O)N/N=C/c2cc(Br)ccc2OCC(=O)O)cc1; value = 7 ± 0.2 µM
SMILES = O=C(O)COc1ccc(Br)cc1/C=N/NC(=O)c1ccc(Cl)cc1; value = 8 ± 0.2 µM

Further values, each from its own experiment
Compound = Cc1ccc(C(C)C)c(O)c1/C=N/NC(=O)c1cc(-c2ccccc2)[nH]n1; target or system = COX-2; quantity = IC50; value = 0.043 µM
Compound = C[C@@H](Nc1c(-c2c(F)cc(C#CCCO)cc2F)c(Cl)nc2ncnn12)C(C)(C)C; target or system = HEK293; setting = 10 µM, 4 h, unit not given; scale = reference: vehicle (DMSO); quantity = total α-tubulin level; value = 0.98 ± 0.21
Compound = O=C(/C=C/c1cc(=O)c(O)co1)OCCOCCO; target or system = tyrosinase; test = enzyme activity, inhibitor; quantity = IC50; value = 26.5 µM

For quick reference, copied from above (sample 1):
SMILES = O=C(O)COc1ccc(Br)cc1/C=N/NC(=O)c1ccc(Cl)cc1; value = 8 ± 0.2 µM
